Results pooled from the literature.
A part holds a random share of what one study measured.
Sequence of UniProt P25098 (whole entry, looked up): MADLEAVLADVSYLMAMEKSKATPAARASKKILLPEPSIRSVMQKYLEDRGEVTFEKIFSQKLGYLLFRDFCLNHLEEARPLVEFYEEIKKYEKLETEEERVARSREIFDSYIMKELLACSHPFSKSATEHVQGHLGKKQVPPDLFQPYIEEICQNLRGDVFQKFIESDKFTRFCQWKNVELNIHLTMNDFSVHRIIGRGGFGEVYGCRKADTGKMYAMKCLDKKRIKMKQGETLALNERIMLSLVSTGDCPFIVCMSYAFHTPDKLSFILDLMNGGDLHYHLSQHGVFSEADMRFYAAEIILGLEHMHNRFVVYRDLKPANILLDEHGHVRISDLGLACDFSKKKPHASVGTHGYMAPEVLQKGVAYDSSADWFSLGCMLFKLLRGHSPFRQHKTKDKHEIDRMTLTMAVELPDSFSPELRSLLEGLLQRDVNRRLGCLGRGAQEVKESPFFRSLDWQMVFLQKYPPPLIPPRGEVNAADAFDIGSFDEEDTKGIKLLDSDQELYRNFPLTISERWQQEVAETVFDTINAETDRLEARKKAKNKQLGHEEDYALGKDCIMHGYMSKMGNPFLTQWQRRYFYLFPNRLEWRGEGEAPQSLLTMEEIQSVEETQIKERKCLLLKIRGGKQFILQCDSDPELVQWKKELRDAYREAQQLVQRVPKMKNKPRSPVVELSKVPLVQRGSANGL
Sequence of UniProt P08069 (whole entry, looked up): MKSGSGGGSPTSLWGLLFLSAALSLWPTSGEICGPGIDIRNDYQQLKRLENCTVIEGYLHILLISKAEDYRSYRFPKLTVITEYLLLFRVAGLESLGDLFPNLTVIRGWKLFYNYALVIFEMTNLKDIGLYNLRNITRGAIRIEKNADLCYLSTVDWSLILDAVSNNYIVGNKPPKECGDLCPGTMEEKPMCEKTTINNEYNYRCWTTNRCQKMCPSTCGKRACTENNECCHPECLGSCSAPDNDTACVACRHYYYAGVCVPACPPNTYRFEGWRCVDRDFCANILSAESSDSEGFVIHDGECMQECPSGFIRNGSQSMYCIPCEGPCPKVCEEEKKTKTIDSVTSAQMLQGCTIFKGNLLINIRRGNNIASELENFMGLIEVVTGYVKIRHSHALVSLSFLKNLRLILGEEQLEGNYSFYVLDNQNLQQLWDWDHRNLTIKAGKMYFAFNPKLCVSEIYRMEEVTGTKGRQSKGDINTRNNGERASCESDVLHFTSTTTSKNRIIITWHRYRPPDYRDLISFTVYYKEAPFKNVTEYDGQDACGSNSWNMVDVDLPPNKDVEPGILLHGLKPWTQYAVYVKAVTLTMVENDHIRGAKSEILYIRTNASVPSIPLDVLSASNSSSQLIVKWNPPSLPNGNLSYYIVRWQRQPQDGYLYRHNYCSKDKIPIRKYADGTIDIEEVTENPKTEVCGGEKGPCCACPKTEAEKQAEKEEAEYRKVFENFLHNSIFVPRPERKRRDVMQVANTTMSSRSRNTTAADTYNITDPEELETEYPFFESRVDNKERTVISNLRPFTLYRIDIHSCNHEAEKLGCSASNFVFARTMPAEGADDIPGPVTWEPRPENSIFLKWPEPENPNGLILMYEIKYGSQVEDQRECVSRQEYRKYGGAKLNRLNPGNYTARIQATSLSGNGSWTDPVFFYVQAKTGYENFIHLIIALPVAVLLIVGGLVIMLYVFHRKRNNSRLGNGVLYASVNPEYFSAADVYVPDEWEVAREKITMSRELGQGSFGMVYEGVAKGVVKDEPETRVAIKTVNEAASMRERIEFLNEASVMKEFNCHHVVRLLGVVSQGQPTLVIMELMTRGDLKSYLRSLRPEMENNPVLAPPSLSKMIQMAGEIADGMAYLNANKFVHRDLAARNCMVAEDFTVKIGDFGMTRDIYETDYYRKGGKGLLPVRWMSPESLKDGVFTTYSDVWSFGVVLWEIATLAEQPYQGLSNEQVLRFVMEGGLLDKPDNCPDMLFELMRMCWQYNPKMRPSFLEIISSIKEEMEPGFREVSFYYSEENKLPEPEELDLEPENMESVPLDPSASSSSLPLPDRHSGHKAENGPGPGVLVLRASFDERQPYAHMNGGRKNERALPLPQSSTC
Sequence of UniProt P10721 (whole entry, unmodified, looked up): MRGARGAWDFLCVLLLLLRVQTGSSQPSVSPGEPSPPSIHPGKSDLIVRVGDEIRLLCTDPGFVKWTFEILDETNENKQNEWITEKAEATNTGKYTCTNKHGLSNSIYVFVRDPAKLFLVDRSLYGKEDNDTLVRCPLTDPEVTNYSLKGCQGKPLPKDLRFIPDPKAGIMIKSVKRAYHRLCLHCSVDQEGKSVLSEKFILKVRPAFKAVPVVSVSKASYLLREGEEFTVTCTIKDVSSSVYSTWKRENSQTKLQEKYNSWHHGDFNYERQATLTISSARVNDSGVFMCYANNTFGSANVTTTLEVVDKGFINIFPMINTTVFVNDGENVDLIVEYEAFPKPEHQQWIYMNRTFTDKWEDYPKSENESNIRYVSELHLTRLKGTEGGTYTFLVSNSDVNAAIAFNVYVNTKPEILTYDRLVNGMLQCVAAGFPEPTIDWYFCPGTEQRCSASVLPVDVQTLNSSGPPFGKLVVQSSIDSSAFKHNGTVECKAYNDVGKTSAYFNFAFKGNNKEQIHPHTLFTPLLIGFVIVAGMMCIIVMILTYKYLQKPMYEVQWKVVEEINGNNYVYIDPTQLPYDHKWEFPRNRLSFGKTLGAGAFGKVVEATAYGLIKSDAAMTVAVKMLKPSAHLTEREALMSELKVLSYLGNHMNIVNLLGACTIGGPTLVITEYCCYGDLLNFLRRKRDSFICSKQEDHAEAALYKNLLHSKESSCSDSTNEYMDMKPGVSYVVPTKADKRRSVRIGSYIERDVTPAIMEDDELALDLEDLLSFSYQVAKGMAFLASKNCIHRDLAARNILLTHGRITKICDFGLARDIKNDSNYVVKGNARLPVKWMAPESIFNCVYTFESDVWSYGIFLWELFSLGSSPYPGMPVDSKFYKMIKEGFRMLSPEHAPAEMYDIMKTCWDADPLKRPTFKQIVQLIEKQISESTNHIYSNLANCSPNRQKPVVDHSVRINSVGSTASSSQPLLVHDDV
Sequence of UniProt Q8NI60 (whole entry, looked up): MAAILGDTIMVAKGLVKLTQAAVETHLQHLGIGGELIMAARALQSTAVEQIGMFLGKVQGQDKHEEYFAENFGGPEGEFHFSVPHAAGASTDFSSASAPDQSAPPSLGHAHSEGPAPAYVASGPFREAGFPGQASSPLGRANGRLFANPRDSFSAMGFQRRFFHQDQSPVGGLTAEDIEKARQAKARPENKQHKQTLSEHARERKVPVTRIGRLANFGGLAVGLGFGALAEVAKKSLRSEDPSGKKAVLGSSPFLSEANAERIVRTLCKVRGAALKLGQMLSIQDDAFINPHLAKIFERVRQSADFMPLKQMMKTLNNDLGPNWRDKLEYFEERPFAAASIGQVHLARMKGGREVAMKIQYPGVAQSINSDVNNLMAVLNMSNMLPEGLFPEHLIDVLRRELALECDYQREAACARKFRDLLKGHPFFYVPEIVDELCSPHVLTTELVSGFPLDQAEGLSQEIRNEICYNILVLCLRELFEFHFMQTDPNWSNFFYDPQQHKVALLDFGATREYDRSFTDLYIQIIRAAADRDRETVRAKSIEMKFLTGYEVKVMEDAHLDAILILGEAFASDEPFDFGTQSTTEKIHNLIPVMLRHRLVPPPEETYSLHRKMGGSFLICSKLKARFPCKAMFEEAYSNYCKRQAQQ
Sequence of UniProt Q14289 (whole entry, looked up): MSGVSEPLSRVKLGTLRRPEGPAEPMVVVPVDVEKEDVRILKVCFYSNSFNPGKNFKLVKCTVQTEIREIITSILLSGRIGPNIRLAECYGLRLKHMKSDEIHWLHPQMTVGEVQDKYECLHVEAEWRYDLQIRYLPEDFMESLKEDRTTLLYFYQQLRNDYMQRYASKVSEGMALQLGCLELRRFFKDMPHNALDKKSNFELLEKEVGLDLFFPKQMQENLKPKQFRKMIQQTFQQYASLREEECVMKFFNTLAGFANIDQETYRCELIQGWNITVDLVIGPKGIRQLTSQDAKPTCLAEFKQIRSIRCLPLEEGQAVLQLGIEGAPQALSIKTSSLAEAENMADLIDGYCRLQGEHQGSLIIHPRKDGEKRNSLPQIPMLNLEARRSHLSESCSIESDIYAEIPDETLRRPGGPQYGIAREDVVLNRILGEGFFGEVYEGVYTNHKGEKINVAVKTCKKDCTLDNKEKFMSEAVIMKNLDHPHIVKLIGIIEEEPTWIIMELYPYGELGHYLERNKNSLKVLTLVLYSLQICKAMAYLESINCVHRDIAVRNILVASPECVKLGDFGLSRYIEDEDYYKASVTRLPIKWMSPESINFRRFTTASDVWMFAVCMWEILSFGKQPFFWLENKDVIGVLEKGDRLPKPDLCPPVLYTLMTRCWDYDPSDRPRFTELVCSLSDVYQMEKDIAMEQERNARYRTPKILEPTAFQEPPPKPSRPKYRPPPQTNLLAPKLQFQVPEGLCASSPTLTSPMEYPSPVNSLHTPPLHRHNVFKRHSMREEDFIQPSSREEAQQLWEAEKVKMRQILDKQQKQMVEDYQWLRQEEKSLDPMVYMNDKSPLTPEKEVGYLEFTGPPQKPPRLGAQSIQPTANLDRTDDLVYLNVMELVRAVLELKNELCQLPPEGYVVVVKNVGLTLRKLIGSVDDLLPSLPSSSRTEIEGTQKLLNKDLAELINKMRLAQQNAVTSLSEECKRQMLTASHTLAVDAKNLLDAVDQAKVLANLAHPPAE
Sequence of UniProt Q9UQB9 (whole entry, looked up): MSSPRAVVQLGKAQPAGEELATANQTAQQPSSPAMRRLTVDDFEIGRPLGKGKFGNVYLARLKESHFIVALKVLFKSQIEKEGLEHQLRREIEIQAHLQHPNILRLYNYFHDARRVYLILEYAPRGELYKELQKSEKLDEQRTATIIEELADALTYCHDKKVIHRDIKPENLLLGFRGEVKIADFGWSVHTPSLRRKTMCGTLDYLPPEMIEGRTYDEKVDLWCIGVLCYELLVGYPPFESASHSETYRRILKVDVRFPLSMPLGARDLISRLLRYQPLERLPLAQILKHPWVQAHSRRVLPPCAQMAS

Study 1
Target: Myotonin-protein kinase (DMPK, Homo sapiens, UniProt Q09013)
Observed: enzyme activity
Action: inhibitor
Tested at: 0.5 µM
Baseline: control
Construct (Q09013 1-629): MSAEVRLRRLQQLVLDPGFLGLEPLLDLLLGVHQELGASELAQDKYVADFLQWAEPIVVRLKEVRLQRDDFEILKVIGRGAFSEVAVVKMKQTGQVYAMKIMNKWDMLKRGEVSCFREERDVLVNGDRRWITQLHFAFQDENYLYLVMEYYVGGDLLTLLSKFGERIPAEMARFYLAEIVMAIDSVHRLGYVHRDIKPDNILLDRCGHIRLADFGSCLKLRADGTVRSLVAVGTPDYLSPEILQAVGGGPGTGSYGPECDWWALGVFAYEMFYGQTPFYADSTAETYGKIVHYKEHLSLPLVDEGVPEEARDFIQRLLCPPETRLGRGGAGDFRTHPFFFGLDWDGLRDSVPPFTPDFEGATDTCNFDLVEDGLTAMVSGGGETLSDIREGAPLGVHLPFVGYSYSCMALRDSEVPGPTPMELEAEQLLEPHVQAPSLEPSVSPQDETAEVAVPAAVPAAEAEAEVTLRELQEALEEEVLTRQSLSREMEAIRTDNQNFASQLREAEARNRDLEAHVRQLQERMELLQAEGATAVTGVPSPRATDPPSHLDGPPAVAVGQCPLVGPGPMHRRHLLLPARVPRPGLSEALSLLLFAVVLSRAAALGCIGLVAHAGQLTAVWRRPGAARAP
SMILES | remaining activity [%]
O=C(O)c1ccc2c3c1cccc3c(=O)n1c3ccccc3nc21 | 98.9
N#CC(C#N)=C(N)/C(C#N)=C/c1ccc(O)cc1 | 101
COc1ccc(OC)c2c(=S)c3ccccc3[nH]c12 | 99.6
Nc1ccc2ncnc(NCCc3ccc(Oc4ccccc4)cc3)c2c1 | 94.2
Nc1ncnc2n[nH]c(Nc3ccc(F)cc3)c12 | 114
Cn1c2ccccc2c2c3c(c4c5ccccc5n(CCC#N)c4c21)CNC3=O | 101
Cc1ccc(NC(=O)c2ccc(CN3CCN(C)CC3)cc2)cc1Nc1nc(-c2cccnc2)cs1 | 104
Cc1ccc(Nc2nccc(N(C)c3ccc4c(C)n(C)nc4c3)n2)cc1S(N)(=O)=O | 93.5
O=C(CCCc1ccc(-c2ccccc2F)cc1)Nc1ccc(O)cc1 | 130
O=C(Nc1cccc(Nc2cc(Nc3cccc(C(F)(F)F)c3)ncn2)c1)C1CC1 | 99.7
Cc1cccc(-c2[nH]c(C(C)(C)C)nc2-c2ccc3c(c2)OCO3)n1 | 102
CN(C)c1ccc(C=C2C(=O)Nc3ccccc32)cc1 | 105
COc1cc2ncnc(Nc3ccc(Oc4ccccc4)cc3)c2cc1OC | 106
COc1ccc(C(=O)Nc2sc3c(c2C(N)=O)CCCC3)cc1OC | 108
CO[C@H]1C[C@@H]2CC[C@@H](C)[C@@](O)(O2)C(=O)C(=O)N2CCCC[C@H]2C(=O)O[C@H]([C@H](C)C[C@@H]2CC[C@@H](O)[C@H](OC)C2)CC(=O)[C@H](C)/C=C(\C)[C@@H](O)[C@@H](OC)C(=O)[C@H](C)C[C@H](C)/C=C/C=C/C=C/1C | 109

Study 2
Compound: CS(=O)(=O)N1CCCC(NC(=O)[C@H](CCC2CCCCC2)NC(=O)c2ccc(CNc3ncnc4c3nnn4-c3ccccc3)cc2)C1 (stereo partly drawn)
Observed: cell-free assay
Method: competition with immobilised ligand
Tested at: 0.1 µM
target | remaining binding [%]
Aurora kinase C (AURKC, Homo sapiens, UniProt Q9UQB9) | 78
Receptor-type tyrosine-protein kinase FLT3 (FLT3, Homo sapiens, UniProt P36888, D835V) | 89
Cyclin-dependent kinase-like 1 (CDKL1, Homo sapiens, UniProt Q00532) | 71
Beta-adrenergic receptor kinase 1 (GRK2, Homo sapiens, UniProt P25098) | 72
Serine/threonine-protein kinase Nek4 (NEK4, Homo sapiens, UniProt P51957) | 100
Cyclin-G-associated kinase (GAK, Homo sapiens, UniProt O14976) | 95

Study 3
Structure (SMILES): CN1CCN(C(=O)c2ccc(NC(=O)Nc3ccc(N(C)c4ccnc(Nc5ccc(CS(C)(=O)=O)cc5)n4)cc3)cc2)CC1
Tested at: 1 µM
target | method | item | notes | baseline | remaining binding [%]
RAC-gamma serine/threonine-protein kinase (AKT3, Homo sapiens, UniProt Q9Y243) | competitive binding panel | – | – | vehicle | 100
Protein-tyrosine kinase 2-beta (PTK2B, Homo sapiens, UniProt Q14289) | competitive binding panel | PYK2 | – | vehicle | 20
Focal adhesion kinase 1 (PTK2, Homo sapiens, UniProt Q05397) | competitive binding | – | FAK | – | 36
Protein kinase C iota type (PRKCI, Homo sapiens, UniProt P41743) | competitive binding panel | – | – | vehicle | 74
Cyclin-dependent kinase 11A (CDK11A, Homo sapiens, UniProt Q9UQ88) | competitive binding panel | CDC2L2 | – | vehicle | 51
Mast/stem cell growth factor receptor Kit (KIT, Homo sapiens, UniProt P10721, V559D/V654A) | competitive binding panel | – | – | vehicle | 9.1

Study 4
Structure (SMILES): C=CC(=O)N1CCC[C@@H](n2nc(-c3ccc(Oc4ccccc4)cc3)c3c(N)ncnc32)C1
Action: inhibitor
Tested at: 1 µM
target | observed | inhibition
Atypical kinase COQ8A, mitochondrial (COQ8A, Homo sapiens, UniProt Q8NI60) | enzyme activity | 4%
Mitogen-activated protein kinase kinase kinase 12 (MAP3K12, Homo sapiens, UniProt Q12852) | enzyme activity | 16%
Phosphatidylinositol 3-kinase catalytic subunit type 3 (PIK3C3, Homo sapiens, UniProt Q8NEB9) | enzyme activity | 5%
Insulin-like growth factor 1 receptor (IGF1R, Homo sapiens, UniProt P08069) | enzyme activity | 16%
Tyrosine-protein kinase ABL1, non-phosphorylated (ABL1, Homo sapiens, UniProt P00519, F317I) | – | 91%
Receptor-type tyrosine-protein kinase FLT3 (FLT3, Homo sapiens, UniProt P36888, F691L/ITD) | – | 41%

Excerpt of the above (study 2):
target | remaining binding [%]
Cyclin-dependent kinase-like 1 (CDKL1, Homo sapiens, UniProt Q00532) | 71
Beta-adrenergic receptor kinase 1 (GRK2, Homo sapiens, UniProt P25098) | 72
